Published values pooled from the literature.
Every numbered part comes from another study and shows a few of its results, in no order. Substitutions count along the parent as printed.

Set 1 — technique: universal PBM; form: double-stranded DNA, one strand shown; medium: in vitro; tested at: not given; reading: higher = stronger binding; endpoint: E-score
Target: Sal-like protein 4, full length isoform B (SALL4, Homo sapiens, UniProt Q9UJQ4-2, residues 1-616)
Setting: 8-mer, flanks averaged, mean of replicates
AGAGATCC: -0.0356
ATGCTCGA: 0.116
CTATGGAC: -0.0767
GTTGCGTA: -0.00286
CCAGCATA: -0.00923
ACACCTGT: -0.0233
TACTGTCA: 0.105
AACCACCG: -0.144
CCCATTAC: 0.0273
TAGTTTAA: 0.291
ACCTGGAT: -0.174
CGCCGAGC: -0.263
GAGATGCA: -0.08
ATACGCAA: 0.159
GAGATGAC: -0.0933
GCGGAGAA: -0.179
TCAAACAA: 0.124
CGCTTGCA: -0.0396
ACCAGTCT: -0.214
GACATTAC: 0.146
TATTGCGA: 0.138
ACCTCACA: -0.115
TAAAGAAA: 0.279
AGAACCTG: -0.162
ATGTTACC: 0.139

Set 2 — target: CCND3, cyclin fold, Cln2 fusion (human); technique: yeast growth competition, sequencing; medium: yeast; setting: weak parent motif; reference: not given; reading: higher = stronger binding; endpoint: normalised enrichment score
Starting sequence: PKN2 docking peptide (human); VSAVRKLDFSDTM
VSAVRKLDLSDTM [F9L]: -0.11
VSAVRLLDFSDTM [K6L]: 0.311
VSAVRKLDYSDTM [F9Y]: 0.0796
VSAVRKLDFSCTM [D11C]: 0.579
VSHVRKLDFSDTM [A3H]: -0.143
VDAVRKLDFSDTM [S2D]: 0.121
VSAVRKLDFSDSM [T12S]: 1.16
VSAVRKLDFDDTM [S10D]: 1.5
VSAVRKLKFSDTM [D8K]: 0.577
VEAVRKLDFSDTM [S2E]: -0.332
VSASRKLDFSDTM [V4S]: 0.524
VSAVRKWDFSDTM [L7W]: 0.00206
VSAVRKLDFSDLM [T12L]: 0.525
VMAVRKLDFSDTM [S2M]: 0.137
VSAVRWLDFSDTM [K6W]: 0.579
VSAVRKLDFPDTM [S10P]: 0.838
VSAVFKLDFSDTM [R5F]: 0.0209
VSAVRQLDFSDTM [K6Q]: 0.431

Set 3 — technique: RNA Bind-n-Seq; form: RNA; medium: in vitro; tested at: 365 nM; reference: no-protein control; reading: higher = stronger binding; endpoint: RBNS enrichment (R)
Target: RNA binding protein fox-1 homolog 2, RRM domain, GST-SBP tag (RBFOX2, Homo sapiens, UniProt O43251-10, residues 100-194)
Setting: natural RNA segment, single round, ends assumed
Constant ends, left off below: GGGAGUUCUACAGUCCGACGAUC … UGGAAUUCUCGGGUGCCAA
Target sequence (chain): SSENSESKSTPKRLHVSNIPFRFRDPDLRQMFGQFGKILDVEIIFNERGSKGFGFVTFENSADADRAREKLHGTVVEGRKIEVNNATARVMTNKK
CCUUCUGUUUGGAUUUUGCUCAACAUCUCCAGUUUCUCUGCUCUGAAAAAUGGGGAAAACUGCUAAACAUCCCAGAGAUUUGCAAUCUUCUAGCUCUCCAGGUGAGCAGA: 0.371
AACCACCAUGCCUAUAGCCACAGCAACCCAUUCUUUUGGAGGUUUUAUAGUUCUCCAUUUGUCUCAUGUUCCGAAUGUGAAGUGUCCUAAUGUGUAUUAAAGUCAGAAAA: 0.917
CCGCCACUCCCUACGCCCACCAUUAGGACCAUCUCUGGGUGGAACAUUUUGUGUGUGCAGACAAGGGUGAGGAGACUCGCCAGCCUGCUCUCUCAGGAGCACGUGUGAAC: 0.192
CUUGUGUUUGUAAGUCUGCAUCUGCAUAAGUACUGACUCUGGAUGGAAAAGCUUGGAAGACCUUGGUCUCACCAUUUGUCUACAUUUGUGUGACCAUAAAAUGCUGGGAG: 0.622
UCUAGAAUCAGAGGCUACCCCUGCCUGUGUGGGGAGGGCCUUUGCUGGCAAGAGAAGCUCAGGCUCAGAGAUGUCUGGACUUUCUCUCCCUCCCUCUCUCUCUCUCUCUC: 0.959
GGAGGCCUUCCUGAAGAAGCUGAUUGGCUGACAAGCAGGGAUGAGUCCUGGUUCCCUUGCCCGCGUGGGACCCCAAUAGAACUCAGCCCUUCCAUGCCAGCCCUUCCUGC: 1.04
GCUUCCUUCAUUUUACUUCCCCUUCUGUUUUUGAAAGGCAGUUUCGCCAAGCUUAAUGCAAGAAUAUCUGACUGUUUAGAAGAAAGAUAUUGCCACAAUCUCUGGAUGGU: 0.281
AGAUCCAUCUGCCUGAGACCCCCGAACUCCUCUCCUCCCAAGCAGAGGCGAGUGAGUGGCAUUAGCUCCCGGACCCAUUCCCGGUCCUAGCUGGGCAUGGGGCUGACGGA: 0.219
AACUUUCGUUUUGGAGUGUUCAUUUUCUGAACUUGACCCUCACAUUGUAGGGGUGCAGUUUGUCCAACUCUUUCCAACAGCCCAUUAGACACCACUAGCUGGAUAUUUCA: 0.276
CAGACGCAGAUGGAGACUGAGGCCGGCUGUGCAUCCCCGCUGGUGCCUCGGCUGCGACGUGUCCAGGCGUGGAGAGUUUUGUGUUUCUCCUGUUCAGUAUCCGAGUCUCG: 0.173
UUUGUAAAUAUCUUUGUGAAUAUUUUAGUAUUGUCUUUGAUAAUAUUCAACAUUUUCAUGACCUGGUUAUAGCCUUUGCUGGUGUUUUUAAAAUAUCUUGACUCAGUGAC: 0.359
UCUGGGGUCUGGGCCAGUGGCCAUAGUGAAGCCUGGGAAUGAGUGUUACUGCAGCAUCUGGGCUGCCAGCCACAGGGAAGGGCCAAGCCCCAUGUAGCCCCAGUCAUCCU: 4.71

Set 4 — technique: RNA Bind-n-Seq; form: RNA; medium: in vitro; tested at: 200 nM; setting: whole 134-nt RNA, ends assumed; added: 150 mM KCl; reference: input library; reading: higher = stronger binding; endpoint: log2 enrichment
Target: Ras GTPase-activating protein-binding protein 1, full length (G3BP1, Homo sapiens, UniProt Q13283)
Chain of UniProt Q13283 (whole entry, looked up): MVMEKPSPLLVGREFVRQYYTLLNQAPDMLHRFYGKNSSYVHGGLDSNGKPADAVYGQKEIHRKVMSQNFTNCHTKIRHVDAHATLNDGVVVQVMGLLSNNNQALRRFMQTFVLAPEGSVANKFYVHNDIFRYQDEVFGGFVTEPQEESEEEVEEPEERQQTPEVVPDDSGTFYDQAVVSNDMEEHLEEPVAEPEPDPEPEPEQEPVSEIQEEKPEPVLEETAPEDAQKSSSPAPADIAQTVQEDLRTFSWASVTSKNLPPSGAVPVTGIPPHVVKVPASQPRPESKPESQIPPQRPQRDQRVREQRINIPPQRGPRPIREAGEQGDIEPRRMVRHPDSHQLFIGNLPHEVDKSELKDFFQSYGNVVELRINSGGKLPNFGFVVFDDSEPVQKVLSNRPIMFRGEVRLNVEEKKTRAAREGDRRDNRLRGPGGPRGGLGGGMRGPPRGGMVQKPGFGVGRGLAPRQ
Constant ends, left off below: GGGAGUUCUACAGUCCGACGAUC … UGGAAUUCUCGGGUGUCAAGG
GCAGGAAGUAAAAACAAAUGGAAAUGCUUCGGAUAGUGAAAGGGGUGGGGGUUGCUAAGGAAAGGGUGGGAUGGGAGUGGGUAAAGAGUU: 0.818
CCUGUGCUACACAUCGUAUGUACCGAAUCAAACCCCCCCAAAUUUUUUUAAAUUUUUAAAAAAGUAUUAUGUUACGCCGUUCGGAUCUGC: 0.239
UGGGAGGUGGAUUUUGUUUAUUUUUUUAGCUCAUUUCCGGGGGUGGGAAUUUUUUUUUAAUAUGUGUCAUGAAUAAAGUUGUUUUUGAAA: 0.412
AGUCCUGUGCUACACAUCGUAUGUACCGAAUCGGAAAAAAGGAAAAAAGGAAAAAAGGAAAGUAUUAUGUUACGCCGUUCGGAUCUGCAC: -1.13
ACCAUGCAGGUGGGCAUCUUUGGGAAGUGGGGCAAGGGGGGGAUAGGGUGGGGGGUAACACUUUGGGAACAGGUGGUCCCAGGUCGUUUC: 1.15
CACAGACAACACGCACCCACUCAGACACAGAGGGAAGGGGUUGGGAUGGGGACAGGGUGCACAGCAGGGCGGGGUAGGACCCCAGCCCCU: 2.01
UGUGCUACACAUCGUAUGUACCGAAUCGGGGAAAAAAAGGGGAAAAAGGGGAAAAAAAGGGGAAAGUAUUAUGUUACGCCGUUCGGAUCU: -0.285
AAGUCCUGUGCUACACAUCGUAUGUACCGAAUCGGGGUUUGGGGUUUGGGGAGGGGAAAGUAUUAUGUUACGCCGUUCGGAUCUGCACUU: 0.949
UGGGAGGUGGAUUUUGUUUAUUUUUUUAGCUCAUGUCCAGGGGUGGGAAUUUUUUUUUAAUAUGUGUCAUGAAUAAAGUUGUUUUUGAAA: -0.0247
UGUUCCUGUUGAUGAAAAUCUUUUCACUGGAGAGGAUUUGGAUGAACUAGAAGAAGAAUUAAAUACACUUGAUUUAGAAGAAUGACACCA: -0.155

Excerpt of the above (set 2):
VSAVRLLDFSDTM [K6L]: 0.311
VSAVRKLDYSDTM [F9Y]: 0.0796
VSAVRKLDFSCTM [D11C]: 0.579
VSHVRKLDFSDTM [A3H]: -0.143
VDAVRKLDFSDTM [S2D]: 0.121
VSAVRKLDFSDSM [T12S]: 1.16
VSAVRKLDFDDTM [S10D]: 1.5
VSAVRKLKFSDTM [D8K]: 0.577
VEAVRKLDFSDTM [S2E]: -0.332
VSASRKLDFSDTM [V4S]: 0.524
